# Results gathered from unrelated publications.
# Compare with care: the assays were run in different laboratories. “And” joins repeats or separate records; there may be more than shown. ± gives the spread as reported.
Structure (SMILES),assay,test system,conditions,scale,measurement,result
C[C@]1(CO)Cc2ncn(-c3ccc(C#N)c(Cl)c3)c2C(=O)O1,,Chinese subjects,20 mg single dose,,urinary sodium excretion 0-24 h,163 mmol
CC(C)C1CCC(N2CCC(N3C(=O)C(=O)c4ccccc43)CC2)CC1 (stereo not drawn),,conscious Sprague-Dawley rat,"intravenous bolus, 30 nmol/kg",,mean arterial pressure change,decreased
CSCC[C@@H]1NC(=O)[C@H](Cc2c[nH]c3ccccc23)NC(=O)[C@@H](NC(=O)CCNC(=O)[C@H](CCC(N)=O)NC(=O)[C@@H]2CCCN2C(=O)[C@@H]2CCCN2C(=O)[C@H](CCCNC(=N)N)NC(=O)[C@H](CCCNC(=N)N)NC(=O)[C@H](CCCNC(=N)N)NC(=O)[C@H](CCC(N)=O)NC(=O)[C@H](CCCNC(=N)N)NC(=O)[C@H](CCCNC(=N)N)NC(=O)[C@H](CCCCN)NC(=O)[C@H](CCCCN)NC(=O)[C@H](CCCNC(=N)N)NC(=O)CN)CSSC[C@@H](C(=O)O)NC(=O)[C@H]([C@@H](C)O)NC(=O)CNC(=O)[C@H](CC(C)C)NC(=O)[C@H](Cc2c[nH]cn2)NC(=O)[C@H](CCCNC(=N)N)NC(=O)[C@@H]2CCCN2C(=O)[C@H](CO)NC1=O,"immunohistochemistry, measured: CSNK2A2","NCI-H226 xenograft mouse, tumour tissue","intravenous, 10 mg/kg, day 16",,CK2α' staining,0.075 ± 0.078 IOD/area
Cc1cn(-c2cc(NC(=O)c3ccc(C)c(Nc4nccc(-c5cccnc5)n4)c3)cc(C(F)(F)F)c2)cn1,,Alzheimer's disease patients,"300 mg, 12 months, group mean",direction not given,ADCS-ADL score,52.7 ± 12.8
O=C1N(Cc2ccccc2Cl)c2ccccc2C12NN=C(c1ccccc1)S2 (stereo not drawn),,"WSU-FSCCL xenograft, mouse","intravenous, 923.8 mg/kg total",,log cell kill,0
[131I-].[Na+],ATA response criteria,"human, papillary thyroid cancer, nodal metastases",3700 MBq,,structural incomplete response,6.9%
CS(=O)(=O)c1ccc(-c2nnc(/C=C/c3nnc(-c4ccc(C#N)cc4)o3)n2-c2ccccc2Cl)nc1,"RNA-seq GSEA, measured: HALLMARK_BILE_ACID_METABOLISM","organoids, small intestinal, Apc Q1405X, mouse","dose not given, 3 days, knockout organoids","reference: DMSO, direction not given",normalized enrichment score,1.87
c1csc(-c2ccc(-c3cccs3)s2)c1,,"C57BL/6J mouse, diet-induced obese","intraperitoneal, 5 mg/kg daily, 336 h",,liver weight,1.91 ± 0.21 g
O=c1c(O)c(-c2ccc(O[C@@H]3O[C@H](CO)[C@@H](O)[C@H](O)[C@H]3O)c(O)c2)oc2cc(O)cc(O)c12,"Cu2+ reduction, CUPRAC",,30 µg/mL,,absorbance,0.519 ± 0.046
CCCCC1(CCCC)CN(c2ccccc2)c2cc(SC)c(OCC(=O)N[C@@H](C(=O)NCC(=O)O)c3ccccc3)cc2S(=O)(=O)C1,measured: LDL cholesterol,"human, serum","20 mg once daily, day 7",,serum LDL-C,73.8 mg/dL
CCOc1cccc(-c2nnc(Cn3c(SCC)nc4ccccc43)o2)c1O,"relaxation, calcium antagonist",isolated rabbit jejunum,together with: 80 mM K+ contraction,,EC50,0.3 ± 0.09 µg/mL
C=CC[C@@H]1c2ccc(OC)c(OC)c2CN2CCc3cc4c(cc3[C@H]12)OCO4,,"P2rx7 A312V/A312V mouse, S. aureus wound infection","dose not given, day 0",reference: day 0,relative wound size,1
C[C@H]1O[C@@H](O[C@H]2CC[C@@]3(C)[C@@H](CC[C@]4(C)[C@@H]3C=C[C@]35OC[C@@]6(CCC(C)(C)C[C@H]63)[C@@H](O)C[C@]54C)[C@]2(C)CO)[C@H](O)[C@@H](O[C@@H]2O[C@H](CO)[C@@H](O)[C@H](O)[C@H]2O)[C@H]1O,,"Mus musculus, chronic-plus-binge ethanol-fed, AAV8-TBG-Null vector, serum","oral, high dose, 5 h",,triglycerides,1.01 mM and 0.563 mM and 0.622 mM and 0.763 mM and 0.905 mM and 1.07 mM
CCSc1nc2ccccc2n1Cc1nnc(-c2ccc(OC)cc2)o1,"relaxation, calcium antagonist",isolated rabbit jejunum,together with: 80 mM K+ contraction,,EC50,0.46 ± 0.05 µg/mL
Cc1nc(Nc2ccc(CC(=O)O)cc2)nc(Nc2ccc(F)c(C(F)(F)F)c2)c1C,,"C57BL/6J mice, high-fat diet, liver","intraperitoneal, 0.3 mg/kg daily, 60% fat diet 12 weeks, dosed last four",reference: vehicle,TUNEL-positive cells,decreased
CCSc1nc2ccccc2n1Cc1nnc(-c2cccc(OC)c2O)o1,"relaxation, calcium antagonist",isolated rabbit jejunum,together with: 80 mM K+ contraction,,EC50,0.29 ± 0.06 µg/mL
CNC(=O)c1c(C)oc2cc(Oc3ccnc4cc(OCCN5CCOCC5)ccc34)ccc12,DCE-MRI Ktrans,patients,"dose not given, all doses",,vascular responders,50%
CCSc1nc2ccccc2n1Cc1nnc(-c2ccc(O)cc2)o1,"relaxation, calcium antagonist",isolated rabbit jejunum,together with: 80 mM K+ contraction,,EC50,0.28 ± 0.09 µg/mL
Clc1cc2c(cc1Cl)Oc1cc(Cl)c(Cl)cc1O2,untargeted metabolomics,"Sprague-Dawley rat, female, urine",dose not given,reference: vehicle,number of changed metabolites,941
CN1CCN(S(=O)(=O)c2cc([N+](=O)[O-])ccc2N(CCOS(C)(=O)=O)CCOS(C)(=O)=O)CC1,,"NSG mice, sample CG PDX","intraperitoneal, 25 mg/kg weekly x3",,event-free survival,38.8 days
CC[C@H](C)[C@@H]1NC(=O)[C@@H]2CCCN2C(=O)[C@H](CC(C)C)NC(=O)[C@H](CC(C)C)NC(=O)CNC(=O)[C@@H](NC(=O)[C@@H](NC(=O)[C@H](CC(=O)O)NC(=O)CNC(=O)[C@@H](NC(=O)[C@H](C)NC(=O)CNC(=O)[C@H](CCCCN)NC(=O)[C@H](CC(C)C)NC(=O)[C@H](CC(C)C)NC(=O)[C@H](CCCCN)NC(=O)CNC(=O)[C@@H](NC(=O)[C@@H](N)CC(C)C)C(C)C)C(C)C)C(C)C)CSSC[C@@H](C(=O)O)NC1=O,"RNA-seq, measured: Irf2bp2 mRNA","mouse traumatic brain injury, frontal cortex and hippocampus",dose not given,reference: TBI plus compound vs TBI,log2 fold change,-0.86

# For quick reference, copied from above:
Structure (SMILES),assay,test system,conditions,scale,measurement,result
Cc1nc(Nc2ccc(CC(=O)O)cc2)nc(Nc2ccc(F)c(C(F)(F)F)c2)c1C,,"C57BL/6J mice, high-fat diet, liver","intraperitoneal, 0.3 mg/kg daily, 60% fat diet 12 weeks, dosed last four",reference: vehicle,TUNEL-positive cells,decreased
CCSc1nc2ccccc2n1Cc1nnc(-c2cccc(OC)c2O)o1,"relaxation, calcium antagonist",isolated rabbit jejunum,together with: 80 mM K+ contraction,,EC50,0.29 ± 0.06 µg/mL
